Published values gathered from unrelated publications.
Every numbered part comes from another study and shows a few of its results, in no order. Several values in a cell are separate wells, animals, samples, runs or records.
Sequence of UniProt O14730 (whole entry, looked up): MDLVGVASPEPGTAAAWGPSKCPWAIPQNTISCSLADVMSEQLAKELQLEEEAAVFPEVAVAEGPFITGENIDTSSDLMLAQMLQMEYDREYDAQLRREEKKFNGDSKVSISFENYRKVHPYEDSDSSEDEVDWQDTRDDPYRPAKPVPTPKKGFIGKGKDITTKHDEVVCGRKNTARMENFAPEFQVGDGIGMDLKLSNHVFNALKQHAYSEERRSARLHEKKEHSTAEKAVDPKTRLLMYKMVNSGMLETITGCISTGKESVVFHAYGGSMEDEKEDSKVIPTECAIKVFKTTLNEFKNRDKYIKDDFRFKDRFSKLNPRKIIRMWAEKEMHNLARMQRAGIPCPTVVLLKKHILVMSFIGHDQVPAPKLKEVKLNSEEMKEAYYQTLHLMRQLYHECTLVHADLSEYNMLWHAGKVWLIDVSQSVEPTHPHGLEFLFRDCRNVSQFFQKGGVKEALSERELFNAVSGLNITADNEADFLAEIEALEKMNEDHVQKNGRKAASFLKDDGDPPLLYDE
Sequence of UniProt Q16513 (whole entry, looked up): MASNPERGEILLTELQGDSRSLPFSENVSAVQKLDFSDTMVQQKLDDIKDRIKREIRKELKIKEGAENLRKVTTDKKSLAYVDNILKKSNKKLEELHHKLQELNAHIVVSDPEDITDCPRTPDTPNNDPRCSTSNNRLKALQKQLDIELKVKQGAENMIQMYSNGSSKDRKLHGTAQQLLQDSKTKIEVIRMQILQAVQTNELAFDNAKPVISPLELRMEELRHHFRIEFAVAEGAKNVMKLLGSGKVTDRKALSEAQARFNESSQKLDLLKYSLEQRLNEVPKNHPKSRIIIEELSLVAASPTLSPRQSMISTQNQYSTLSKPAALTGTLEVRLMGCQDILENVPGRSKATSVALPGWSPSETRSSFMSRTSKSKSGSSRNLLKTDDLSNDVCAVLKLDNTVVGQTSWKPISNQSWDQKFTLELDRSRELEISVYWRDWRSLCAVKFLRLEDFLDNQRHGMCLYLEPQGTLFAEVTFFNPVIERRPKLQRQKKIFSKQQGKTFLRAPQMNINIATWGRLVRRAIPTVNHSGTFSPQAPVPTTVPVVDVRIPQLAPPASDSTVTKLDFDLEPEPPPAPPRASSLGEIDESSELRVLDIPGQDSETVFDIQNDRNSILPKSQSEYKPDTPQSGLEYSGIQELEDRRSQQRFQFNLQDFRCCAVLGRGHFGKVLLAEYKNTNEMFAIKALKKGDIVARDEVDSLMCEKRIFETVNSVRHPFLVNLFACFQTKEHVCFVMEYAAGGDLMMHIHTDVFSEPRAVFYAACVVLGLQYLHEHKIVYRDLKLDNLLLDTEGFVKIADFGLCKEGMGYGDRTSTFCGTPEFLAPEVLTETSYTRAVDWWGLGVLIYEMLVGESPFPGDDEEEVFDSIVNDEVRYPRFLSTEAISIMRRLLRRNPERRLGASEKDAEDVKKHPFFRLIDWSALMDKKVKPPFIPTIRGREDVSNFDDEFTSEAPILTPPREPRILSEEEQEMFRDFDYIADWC

Sample 1 — cell line: THP-1
SMILES: CCCCCCCCCCCCCCCCOP(=O)([O-])OCC[N+](C)(C)C
The inhibition was 4.35% and 1.55% and -0.32% and -3.65% and -0.23% and 2.55% (host cell growth; 0.04 µM).
10 µM, cytotoxicity — inhibition: 30%.
It gave -0.53% and -0.95% and -0.24% and -0.19% and -2.94% and -1.44% for inhibition (host cell growth; 0.1 µM).

Sample 2 — observed: enzyme activity; mode: inhibitor; tested at: 0.5 µM; reference: control
Target: Mitogen-activated protein kinase 1 (MAPK1, Homo sapiens, UniProt P28482)
Sequence of UniProt P28482 (whole entry, looked up): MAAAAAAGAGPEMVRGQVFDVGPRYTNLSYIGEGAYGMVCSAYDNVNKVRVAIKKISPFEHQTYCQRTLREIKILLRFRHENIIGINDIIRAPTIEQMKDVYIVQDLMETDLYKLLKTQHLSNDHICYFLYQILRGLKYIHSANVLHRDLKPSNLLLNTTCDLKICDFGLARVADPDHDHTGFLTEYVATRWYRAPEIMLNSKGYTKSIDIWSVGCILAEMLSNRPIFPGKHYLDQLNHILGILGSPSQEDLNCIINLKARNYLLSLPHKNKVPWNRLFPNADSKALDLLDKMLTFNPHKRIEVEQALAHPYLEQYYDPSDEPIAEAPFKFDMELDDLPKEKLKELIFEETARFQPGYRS
With `COc1ccc(CNC(=O)Nc2ncc([N+](=O)[O-])s2)cc1` the remaining activity was 104%.
`COc1ccc(C(=O)Nc2sc3c(c2C(N)=O)CCCC3)cc1OC` gave a remaining activity of 91.2%.
`CO[C@H]1C[C@@H]2CC[C@@H](C)[C@@](O)(O2)C(=O)C(=O)N2CCCC[C@H]2C(=O)O[C@H]([C@H](C)C[C@@H]2CC[C@@H](O)[C@H](OC)C2)CC(=O)[C@H](C)/C=C(\C)[C@@H](O)[C@@H](OC)C(=O)[C@H](C)C[C@H](C)/C=C/C=C/C=C/1C` gave a remaining activity of 101%.
For `NCCNc1ncc(C(N)=O)c(Nc2cccc(C(F)(F)F)c2)n1`, the remaining activity was 94.3%.
For `Nc1ncnc2n[nH]c(Nc3ccc(F)cc3)c12`, the remaining activity was 80.8%.
The remaining activity of `O=C1NC(=O)C(c2cn(CCCO)c3ncccc23)=C1c1cnccn1` is reported as 81.9%.
With `C#Cc1cccc(Nc2ncnc3cc(OCCOC)c(OCCOC)cc23)c1` the remaining activity was 116%.
The remaining activity of `O=C(Nc1cccc(Nc2cc(Nc3cccc(C(F)(F)F)c3)ncn2)c1)C1CC1` is reported as 101%.
With `COc1cc2ncnc(Nc3ccc(Oc4ccccc4)cc3)c2cc1OC` the remaining activity was 99.8%.
With `COc1ccc(OC)c2c(=S)c3ccccc3[nH]c12` the remaining activity was 91.5%.
`CC(C)[C@H](CO)Nc1nc(Nc2cc(N)cc(Cl)c2)c2ncn(C(C)C)c2n1` has a remaining activity of 95.4%.
With `CCOC(=O)c1c(C)[nH]c(/C=C2\C(=O)Nc3ccccc32)c1C` the remaining activity was 96.4%.
The remaining activity of `CN(C)c1ccc(C=C2C(=O)Nc3ccccc32)cc1` is reported as 96.4%.
With `Cn1c2ccccc2c2c3c(c4c5ccccc5n(CCC#N)c4c21)CNC3=O` the remaining activity was 104%.
`Cc1ccc(Nc2nccc(N(C)c3ccc4c(C)n(C)nc4c3)n2)cc1S(N)(=O)=O` gave a remaining activity of 103%.
For `Oc1ccc(-c2nc(-c3ccncc3)c(-c3ccc(F)cc3)[nH]2)cc1`, the remaining activity was 97.2%.
For `Cc1nc(-c2ccccc2)c(-c2ccncc2)o1`, the remaining activity was 90.3%.
`O=c1c2ccccc2[nH]c(=S)n1CCN1CCC(=C(c2ccc(F)cc2)c2ccc(F)cc2)CC1` has a remaining activity of 102%.
With `Nc1[nH]nc2nc3ccccc3nc12` the remaining activity was 100%.
The remaining activity of `N#CC(C#N)=C(N)/C(C#N)=C/c1ccc(O)cc1` is reported as 101%.
For `O=C1NC(=O)C(c2cn(CCCn3ccnc3)c3ccccc23)=C1Nc1ccccc1`, the remaining activity was 94.8%.
`O=C(O)c1ccc2c3c1cccc3c(=O)n1c3ccccc3nc21` has a remaining activity of 100%.
`O=S(=O)(c1cccc2cnccc12)N1CCCNCC1` gave a remaining activity of 98.1%.
`OCC(O)CCON=C1C(c2c(O)[nH]c3ccccc23)=Nc2ccccc21` (stereo not drawn) has a remaining activity of 89.8%.
`COc1cc2nccc(Oc3ccc(NC(=S)NC(=O)c4ccccc4C)cc3)c2cc1OC` has a remaining activity of 89.3%.

Sample 3 — cell line: HuT78; tested at: 2 µM; time: 48 h; reference: untreated
With `COc1cc2ncnc(Nc3ccc(Cl)cc3F)c2cc1OC` the viability was 125%.
With `CC(=O)c1c(C)c2cnc(Nc3ccc(N4CCNCC4)cn3)nc2n(C2CCCC2)c1=O` the viability was 94.5%.
With `CCOc1cc(N2CCC(O)CC2)ccc1Nc1ncc2c(n1)N(C)c1ccccc1C(=O)N2C` the viability was 130%.
The viability of `C=CC(=O)Nc1ccc2ncnc(Nc3cccc(Br)c3)c2c1` is reported as 130%.

Sample 4 — tested at: 1 µM
Structure (SMILES): CN([C@@H]1CCc2c(CC(=O)O)c3ccccc3n2C1)S(=O)(=O)c1ccc(F)cc1
The remaining binding was 71% (Serine/threonine-protein kinase SIK1 (SIK1, Homo sapiens, UniProt P57059); competition binding).
The remaining binding was 100% (Cyclin-G-associated kinase (GAK, Homo sapiens, UniProt O14976); cell-free assay, competition with immobilised ligand).
For Serine/threonine-protein kinase RIO3 (RIOK3, Homo sapiens, UniProt O14730); cell-free assay, competition with immobilised ligand: remaining binding read 100%.
It gave 100% for remaining binding (Serine/threonine-protein kinase N2 (PKN2, Homo sapiens, UniProt Q16513); cell-free assay, competition with immobilised ligand).

Sample 5 — species: human; matrix: microsomes or S9; tested at: 2 µM; time: 0.5 h
`CCN(CC)CCCNc1sc(S(C)(=O)=O)nc1S(=O)(=O)c1ccc(C)cc1` gave a remaining compound of 75.4%.
`Cc1cc(C(F)(F)F)nc(OCCCC#N)c1C(=O)C1C(=O)C2CCC(C2)C1=O` (stereo not drawn) has a remaining compound of 86.2%.
With `OCCN(CC(O)c1ccc(F)c(F)c1)c1ccccc1` (stereo not drawn) the remaining compound was 42.3%.
The remaining compound of `O=C(C1=Cc2ccccc2OC=C1)N1CCCCC1c1ccccn1` (stereo not drawn) is reported as 52.8%.

Sample 6 — observed: enzyme activity; mode: inhibitor; tested at: 77 µM; reference: untreated
Target: DNA polymerase theta, ATPase domain (POLQ, Homo sapiens, UniProt O75417)
Sequence of UniProt O75417 (whole entry, unmodified, looked up): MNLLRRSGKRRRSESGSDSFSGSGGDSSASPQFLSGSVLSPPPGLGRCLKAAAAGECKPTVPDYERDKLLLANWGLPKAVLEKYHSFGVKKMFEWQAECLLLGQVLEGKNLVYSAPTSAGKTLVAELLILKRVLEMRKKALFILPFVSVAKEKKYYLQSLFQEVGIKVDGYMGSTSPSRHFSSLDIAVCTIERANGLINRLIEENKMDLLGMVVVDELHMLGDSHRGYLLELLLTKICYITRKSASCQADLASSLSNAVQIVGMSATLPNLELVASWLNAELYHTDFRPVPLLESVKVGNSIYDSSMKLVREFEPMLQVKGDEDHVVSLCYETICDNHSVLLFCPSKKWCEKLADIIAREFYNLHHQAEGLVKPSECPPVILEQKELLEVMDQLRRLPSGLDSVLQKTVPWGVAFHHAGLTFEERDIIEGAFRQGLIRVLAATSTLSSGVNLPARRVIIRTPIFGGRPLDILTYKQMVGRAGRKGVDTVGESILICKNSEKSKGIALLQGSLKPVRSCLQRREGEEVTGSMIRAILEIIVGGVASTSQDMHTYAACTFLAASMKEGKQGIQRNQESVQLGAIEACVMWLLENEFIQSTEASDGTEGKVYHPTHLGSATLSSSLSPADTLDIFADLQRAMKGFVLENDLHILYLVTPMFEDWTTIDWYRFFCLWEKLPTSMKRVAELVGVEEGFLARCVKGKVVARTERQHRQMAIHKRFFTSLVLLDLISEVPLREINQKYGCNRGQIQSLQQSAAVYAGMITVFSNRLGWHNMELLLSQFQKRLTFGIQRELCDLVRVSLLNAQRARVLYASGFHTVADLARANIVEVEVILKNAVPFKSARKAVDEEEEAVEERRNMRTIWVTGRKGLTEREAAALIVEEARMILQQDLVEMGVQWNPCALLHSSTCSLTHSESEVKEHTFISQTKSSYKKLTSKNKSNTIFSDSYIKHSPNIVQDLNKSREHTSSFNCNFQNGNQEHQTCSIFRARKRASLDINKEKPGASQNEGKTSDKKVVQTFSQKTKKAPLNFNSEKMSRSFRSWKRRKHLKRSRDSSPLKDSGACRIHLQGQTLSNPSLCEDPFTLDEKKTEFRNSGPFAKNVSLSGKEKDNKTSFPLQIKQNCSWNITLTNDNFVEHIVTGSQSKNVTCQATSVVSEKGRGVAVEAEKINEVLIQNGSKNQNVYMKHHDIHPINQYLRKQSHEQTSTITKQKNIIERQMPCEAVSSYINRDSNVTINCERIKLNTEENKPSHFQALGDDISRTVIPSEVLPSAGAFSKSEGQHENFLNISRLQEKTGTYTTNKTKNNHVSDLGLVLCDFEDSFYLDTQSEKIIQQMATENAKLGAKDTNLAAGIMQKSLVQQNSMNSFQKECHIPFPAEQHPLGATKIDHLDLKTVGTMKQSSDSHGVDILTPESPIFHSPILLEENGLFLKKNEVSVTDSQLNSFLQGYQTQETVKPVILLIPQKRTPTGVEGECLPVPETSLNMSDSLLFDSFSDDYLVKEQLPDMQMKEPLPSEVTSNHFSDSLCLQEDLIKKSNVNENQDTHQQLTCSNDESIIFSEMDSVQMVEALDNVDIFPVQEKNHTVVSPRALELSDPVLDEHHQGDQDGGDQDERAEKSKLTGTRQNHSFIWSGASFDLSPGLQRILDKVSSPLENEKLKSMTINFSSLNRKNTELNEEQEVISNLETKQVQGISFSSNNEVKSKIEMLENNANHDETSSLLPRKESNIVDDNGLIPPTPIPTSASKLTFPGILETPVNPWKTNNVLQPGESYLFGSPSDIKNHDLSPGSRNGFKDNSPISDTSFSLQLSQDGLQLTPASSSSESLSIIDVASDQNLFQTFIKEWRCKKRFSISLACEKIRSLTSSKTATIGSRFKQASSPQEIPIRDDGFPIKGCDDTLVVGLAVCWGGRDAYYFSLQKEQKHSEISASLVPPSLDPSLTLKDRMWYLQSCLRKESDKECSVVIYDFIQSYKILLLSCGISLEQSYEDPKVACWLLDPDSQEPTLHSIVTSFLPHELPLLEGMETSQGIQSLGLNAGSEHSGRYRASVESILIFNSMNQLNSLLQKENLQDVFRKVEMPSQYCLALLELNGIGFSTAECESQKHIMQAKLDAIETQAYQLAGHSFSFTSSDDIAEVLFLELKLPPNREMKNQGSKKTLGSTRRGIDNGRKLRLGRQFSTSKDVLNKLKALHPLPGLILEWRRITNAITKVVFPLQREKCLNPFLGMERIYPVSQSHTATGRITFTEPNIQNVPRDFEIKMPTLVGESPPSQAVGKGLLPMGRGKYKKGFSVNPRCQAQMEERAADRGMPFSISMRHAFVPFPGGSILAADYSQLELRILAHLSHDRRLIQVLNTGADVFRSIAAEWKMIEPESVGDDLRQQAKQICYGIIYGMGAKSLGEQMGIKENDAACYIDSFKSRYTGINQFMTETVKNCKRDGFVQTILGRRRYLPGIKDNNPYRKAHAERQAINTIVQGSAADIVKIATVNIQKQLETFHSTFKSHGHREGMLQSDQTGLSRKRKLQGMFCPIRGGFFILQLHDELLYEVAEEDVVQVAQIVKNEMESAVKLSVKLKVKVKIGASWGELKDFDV
`CCOC(=O)[C@H](CCc1ccccc1)N[C@H]1CCCN2CCC[C@@H](C(=O)O)N2C1=O` has a remaining activity of 98.2%.
`Nc1nc(CC(=O)Nc2ccc(CCNC[C@H](O)c3ccccc3)cc2)cs1` gave a remaining activity of 104%.
`CC1=C(CC(=O)O)c2cc(F)ccc2/C1=C\c1ccc(S(C)(=O)=O)cc1` has a remaining activity of 89.6%.

Sample 7 — organism: Sarcocystis neurona; observed: parasite growth; tested at: 10 µM; time: 96 h; setting: second screen; reference: untreated
`NC(=O)c1ncn([C@@H]2O[C@H](CO)[C@@H](O)[C@H]2O)n1` — result for “log2 fold change”: 0.53.
For `CN1[C@@H]2CC[C@H]1C[C@@H](OC(=O)c1c[nH]c3ccccc13)C2`, “log2 fold change” read 0.35.
Under “log2 fold change”, `CS(=O)(=O)OCCCCOS(C)(=O)=O` is recorded as 0.0661.
`C[C@H]1COc2c(N3CCN(C)CC3)c(F)cc3c(=O)c(C(=O)O)cn1c23`: “log2 fold change” 0.12.
`CC1Cc2ccccc2N1NC(=O)c1ccc(Cl)c(S(N)(=O)=O)c1` (stereo not drawn) — result for “log2 fold change”: 0.61.

Other studies, line by line
T1: G-quadruplex RNA, G-quadruplex (Homo sapiens); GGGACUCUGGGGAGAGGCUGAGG
With `C=C(F)C(=O)N1CCN(c2nc(OC[C@@H]3CCCN3C)nc3c2CCN(c2cccc4cccc(Cl)c24)C3)C[C@@H]1CC#N` the normalized BRET was 98.7% and 93.4% (GTPase HRas (HRAS, Homo sapiens, UniProt P01112); binding, competitor, NanoBRET; HEK293; 82.2 nM).
For `CN(C)c1ccc(Nc2c3ccc(NC(=O)CCN4CCCC4)cc3nc3cc(NC(=O)CCN4CCCC4)ccc23)cc1`, the Kd was 50 nM (T1, G-quadruplex RNA, G-quadruplex (Homo sapiens); microscale thermophoresis; KCl 150 mM).
`Cn1cnc(Cn2ccc3ccc(CNCc4[nH]c5ccccc5c4[C@H]4NC(=O)c5ccc(O)cc54)cc32)c1` has a normalized BRET of 94.7% and 85.1% and 98.3% and 97% (GTPase KRas (KRAS, Homo sapiens, UniProt P01116, G12C); binding, competitor, NanoBRET; HEK293; 9.14 nM, 0.5 h; reference: vehicle and 20 µM BI compound).

Some of these lines once more (sample 2):
With `COc1cc2ncnc(Nc3ccc(Oc4ccccc4)cc3)c2cc1OC` the remaining activity was 99.8%.
With `COc1ccc(OC)c2c(=S)c3ccccc3[nH]c12` the remaining activity was 91.5%.
`CC(C)[C@H](CO)Nc1nc(Nc2cc(N)cc(Cl)c2)c2ncn(C(C)C)c2n1` has a remaining activity of 95.4%.
With `CCOC(=O)c1c(C)[nH]c(/C=C2\C(=O)Nc3ccccc32)c1C` the remaining activity was 96.4%.
The remaining activity of `CN(C)c1ccc(C=C2C(=O)Nc3ccccc32)cc1` is reported as 96.4%.
With `Cn1c2ccccc2c2c3c(c4c5ccccc5n(CCC#N)c4c21)CNC3=O` the remaining activity was 104%.
`Cc1ccc(Nc2nccc(N(C)c3ccc4c(C)n(C)nc4c3)n2)cc1S(N)(=O)=O` gave a remaining activity of 103%.
For `Oc1ccc(-c2nc(-c3ccncc3)c(-c3ccc(F)cc3)[nH]2)cc1`, the remaining activity was 97.2%.
